Measured values pooled from the literature.
Numbered parts are unrelated; each lists some results of a single study. Substitutions count along the parent as printed.

Block 1
Target: ABI1, truncated, D143A, DHFR fusion (Arabidopsis thaliana)
Technique: DHFR PCA, deep sequencing
Medium: yeast
Notes: methotrexate growth selection, single substitutions
With: (+)-ABA 58 µM
Reference: wild-type fitted maximum
Direction: higher = stronger binding
Quantity: relative binding score
Parent: PYL1, truncated, DHFR fusion (Arabidopsis thaliana); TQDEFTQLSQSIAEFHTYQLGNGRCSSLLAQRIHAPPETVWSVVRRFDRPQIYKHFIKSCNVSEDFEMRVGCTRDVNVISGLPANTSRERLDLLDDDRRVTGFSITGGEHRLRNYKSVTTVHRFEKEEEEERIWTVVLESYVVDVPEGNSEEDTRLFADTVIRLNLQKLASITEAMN; partner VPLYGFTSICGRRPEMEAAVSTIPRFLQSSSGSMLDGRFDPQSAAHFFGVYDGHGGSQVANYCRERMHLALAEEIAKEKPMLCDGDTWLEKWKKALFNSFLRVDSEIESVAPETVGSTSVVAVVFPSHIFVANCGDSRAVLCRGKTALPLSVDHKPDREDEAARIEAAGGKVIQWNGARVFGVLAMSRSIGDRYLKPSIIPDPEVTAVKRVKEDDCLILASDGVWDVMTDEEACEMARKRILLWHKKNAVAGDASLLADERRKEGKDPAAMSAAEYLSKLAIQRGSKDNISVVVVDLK
V43N: 21.8%
W134S: 99.5%
I162F: 0.997%
I33R: 0.76%
V136Y: 92.2%
V121F: 7.11%
V142C: 82.8%
S59H: 75.7%
L82Y: 16.9%
D159P: -9.83%
S171E: 94.4%
R113K: 101%
D153C: 36.9%
V40A: 15.7%
I162G: 2.98%
V121G: -6.25%
F47S: -9.49%
W134T: 96.5%
C25G: 13.6%

Block 2
Target: Histone acetyltransferase KAT6A, winged helix 1, GST fusion (KAT6A, Homo sapiens, UniProt Q92794, residues 1-85)
Technique: protein binding microarray
Molecule type: double-stranded DNA, one strand shown
Medium: in vitro
Concentration: not given
Notes: 8-mer, flanks averaged, mean of 2 arrays, mostly near background
Reference: not given
Direction: higher = stronger binding
Quantity: E-score
Residues (chain): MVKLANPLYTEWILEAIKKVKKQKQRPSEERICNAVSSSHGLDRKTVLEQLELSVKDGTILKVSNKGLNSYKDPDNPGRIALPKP
CAACCCAA: -0.258
CTCGCGCC: 0.328
ATATTAAC: -0.0329
ACATGTAG: -0.188
CTCCTATA: -0.218
CCGGGGGC: 0.306
CAGGTGTC: -0.0138
CAGCTGTA: -0.133
ACTTTATG: -0.171
ACGCGTCC: 0.31
ATACCATA: -0.237
AGGTGTAG: -0.0134
CCACGCGA: 0.00299
CGAAATTA: -0.0937
GAGGTGCC: 0.00927
ACATCTAA: -0.159
AGTTGACA: -0.235
TACGGGGA: 0.251
GCAGATAC: -0.00268
ACTAGTAA: -0.0676
CAGCCCAC: -0.127
AAGTCTCC: -0.136
TGGCAGAA: -0.119
AGAAGTCA: -0.174
ACAGCTTA: -0.231

Block 3
Target: CCNB1, cyclin fold, Cln2 fusion (human)
Technique: yeast growth competition, sequencing
Medium: yeast
Notes: weak parent motif
Reference: not given
Direction: higher = stronger binding
Quantity: normalised enrichment score
Parent: SCAPER docking peptide (human); SNARRSLNFGGST
S6K: 1.29
R5Q: 0.434
R5G: 0.158
S1L: 0.799
G10D: 0.197
G10K: 0.203
G10W: 0.431
S12K: 0.371
N8W: 0.582
R5N: -0.367
A3P: 0.715
S12T: -0.108
T13I: 0.411
T13D: 1.34
F9E: -0.181
L7M: 0.152
G11H: 0.377
L7N: -0.166
T13N: 1.07
T13H: 0.14
N8F: 0.231
S6M: 0.934
L7T: 0.747
N8M: 0.0683
N8S: 1.26

Block 4
Target: RNA binding protein fox-1 homolog 2, RRM domain, GST-SBP tag (RBFOX2, Homo sapiens, UniProt O43251-10, residues 100-194)
Technique: RNA Bind-n-Seq
Molecule type: RNA
Medium: in vitro
Concentration: 365 nM
Notes: natural RNA segment, single round, ends assumed
Reference: no-protein control
Direction: higher = stronger binding
Quantity: RBNS enrichment (R)
All sequences stand within: GGGAGUUCUACAGUCCGACGAUC … UGGAAUUCUCGGGUGCCAA
Target sequence (chain): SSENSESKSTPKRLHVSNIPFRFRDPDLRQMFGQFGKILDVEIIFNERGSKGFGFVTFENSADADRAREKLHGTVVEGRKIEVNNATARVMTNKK
AAUAUAUGGCUUUUUCAAAUCAGUUCAGUGAAAAUAGUACAGAUUUAGGUUUACAUAACUACUCUGACAUACUGGAAUUGCAUAUAGAGAUGUUCAGUGGUCGUUUUUCA: 0.4
CUCACAAAAAAAAUCCUGCUUGUAUUCAGUUUCAAACUUUAUUAGUCUCACUUUUAAUUAUAAAACCAGAAAGCUGCAAUUUCUUUUCCCUCUACCCCUUAUUUGUUGGC: 0.804
CCUAUUUCUACUUUUAUUUUGUAUUUCUGGUCUGUGAAAACAAUUUAAUAAAGGGAAAUGACUUUGGAAACGAUGUCCUUAUGUCUCCUUUCCCAAUUUGCAUGUGGUGU: 17.9
GUCACCUGGGUCUGAGAAGCCUUCACUUCCACUUGCCAGAGGGAAGAACUGGCCACCCAUCUGUCAGGCUCUUCCUUGGAAACGAAGAGCAGAGGUGGUCUCUAGGGGGA: 0.985
UGAGCGUUUAAUUUAUUCAGUACCUGUGUUUGUGUGAAUGCGGUGUGUGCAGGCAUCGCAGAUGGGGGUUCUUUCAGUUCAAAAGUGAGAUGUCUGGAGAUCAUAUUUUU: 1.85
GACGAUGUUCUAAUAUAACACUGAAGUGCUUCAUUGUAUCCCAACAGUUUACCUUCAAGUAAUAUUAUCUUUAUUUUUAGGCUAAGCACGUUUGAUUAUUUUGUCUGUCU: 0.253
GUUUUGUAGAAGAAAAAUUAUUGUGUUUAGGGGUAUAAUAUUAUAUGUUUUCAUAUUAUGAAAUGAAUUUGUAUUUAAACAAAAAUUUAAAUUUUGGAAUCCUCUAAACA: 1.11
UGUGGUAUUUUAAUGUGGUAAACAUGUGAAUGAAGGCCUGUGGCUCAGUUAAUCACUCCCACAACUUUGAGCUGUGAGUUUUACUGGUGGAAGGAACUUUAACAGGUCUU: 0.45
ACCAUGAAAGUGUUACUCAGAAUUGUCAUAGAUUUUCUCUUCUUUGUGCAAAAACAUGGAAAAUUGUCACUGACUUUGUUUUGAGGUUUCCCCCAUUUUGCUGCCUUUUG: 0.422
AUUUUUUGAGUUCAAAUGCUACUGUCCAAGCGAGAAGUCCCUCAUCCUGAAGUAGACUAAAGCCCGGCUGAAAAUUCCGAGGAAAACAAAACAAACGAAUGAAUGAACAG: 0.923
ACUACUGUGAUAAAAAUGAACUCAAUAUGUAGUAGCUUAUACUUUUCUCCAGUAUAUUGUUGGUCACUCACAAAUGAUUCAUUUGAACACAUUUUAGGGAUAAGUAAUCA: 0.376
AUGUCUAUAAUAAGAACCUCCCCGCAACCAUACGAAGUAUAACCAUACAUCUAUAGUUCUCCCCCGGGGAGCUAGUGUUUGAACUUUGAAGUCUGCUCAGCUGCAUGGUG: 1.5

Block 5
Molecule: PhoQ, residues 284 288 289 292 302 303 SQSLSM
Technique: Sort-seq
Item: YFP reporter
Medium: E. coli
Notes: PhoQ-PhoP variant library
With: 10 µM Mg2+
Reference: high Mg2+ state
Direction: higher = stronger signaling
Quantity: fold induction
PhoP, residues 12 14 15 18 19 VHTVL (Escherichia coli, UniProt P23836): 4.24
PhoP, residues 12 14 15 18 19 ICWRQ (Escherichia coli, UniProt P23836): 3.49
PhoP, residues 12 14 15 18 19 TQCLL (Escherichia coli, UniProt P23836): 4.26

Block 6
Target: Prothrombin, mature alpha-thrombin (F2, Homo sapiens, UniProt P00734)
Technique: aptamer microarray, sandwich
Molecule type: DNA with 2'F-ANA
Medium: in vitro
Concentration: 200 nM
Notes: whole 15-mer aptamer, many near background
With: Cy3 exosite-II aptamer, 400 nM
Direction: higher = stronger binding
Quantity: mean fluorescence intensity
Oligonucleotide: GGTTGGTGTGGTTGG
2'F-ANA at 3 5 6 10 14: 49.7 a.u.
2'F-ANA at 4 8 10 12 13: 83.5 a.u.
2'F-ANA at 1 2 3 4 5 6 7 9 10 11 15: 96.5 a.u.
2'F-ANA at 2 3 4 6 8 9 10 12 13 14 15: 152 a.u.
2'F-ANA at 1 3 4 6 8 9 10 12 14: 91.5 a.u.
2'F-ANA at 1 2 4 8 10 11 12 14: 49 a.u.
2'F-ANA at 4 8 9 14: 93.7 a.u.
2'F-ANA at 1 2 3 4 5 9 11 13 14 15: 47.6 a.u.
2'F-ANA at 4 5 6 7 8 9 10 12 14 15: 80.9 a.u.
2'F-ANA at 2 5 8 9 12: 180 a.u.
2'F-ANA at 2 4 8 9 12 13 15: 414 a.u.
2'F-ANA at 1 5 8 9 10 12 13: 56.1 a.u.
2'F-ANA at 1 6 8 9 10 12: 89.1 a.u.
2'F-ANA at 1 2 5 9 11 12 15: 79.7 a.u.
2'F-ANA at 1 3 4 5 7 8 11 13: 53.6 a.u.
2'F-ANA at 1 3 4 6 10 11 13: 57.5 a.u.
2'F-ANA at 5 6 7 8 11 12 14 15: 48.3 a.u.
2'F-ANA at 1 2 3 6 7 9 11 12 13 14 15: 74.7 a.u.

Block 7
Target: CREBZF, bZIP domain (human)
Technique: DHFR protein complementation
Medium: yeast
Notes: single substitutions, most at no-binding floor
Reference: wild-type JUN-FOS pair
Direction: higher = stronger binding
Quantity: binding fitness
Parent: JUN, bZIP domain (human); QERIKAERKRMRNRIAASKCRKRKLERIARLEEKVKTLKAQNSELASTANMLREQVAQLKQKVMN; partner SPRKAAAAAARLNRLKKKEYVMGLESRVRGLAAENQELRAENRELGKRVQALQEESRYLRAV
N42K: -1.58 natural log
N42F: -1.54 natural log
M51R: -1.42 natural log
R30P: -1.46 natural log
E32W: -1.51 natural log
Q41K: -1.58 natural log
N42E: -1.51 natural log
M51L: -1.47 natural log
E33F: -1.49 natural log
K39W: -1.53 natural log
K39I: -1.38 natural log
N42L: -1.49 natural log
M51V: -1.44 natural log
K34G: -1.49 natural log
E32P: -1.52 natural log
A57W: -1.45 natural log
Q41T: -1.4 natural log
R30G: -1.44 natural log

For quick reference, copied from above (block 2):
AAGTCTCC: -0.136
ACTAGTAA: -0.0676
ACGCGTCC: 0.31
ATATTAAC: -0.0329
TACGGGGA: 0.251
CAGCTGTA: -0.133
CCACGCGA: 0.00299
CCGGGGGC: 0.306
ACAGCTTA: -0.231
ACATGTAG: -0.188
CTCGCGCC: 0.328
AGTTGACA: -0.235
AGGTGTAG: -0.0134
CGAAATTA: -0.0937
ACATCTAA: -0.159
CAGGTGTC: -0.0138
TGGCAGAA: -0.119
